{"data": "Experimental data pooled from the literature", "note": "± marks the error that the study gave."}
{"Compound": "Nc1nccc(-c2cn(C3CC3)c3ccccc23)n1", "assay": "radio-HPLC, co-eluting peaks pooled", "test system": "human male, urine", "setting": "oral, 110 mg, 0 to 96 h, sample holds 4.16% dose", "how to read": "reference: sample radioactivity", "measurement": "share of radioactivity", "result": "0.42%"}
{"Compound": "CC[C@@H](C)N([11CH3])C(=O)c1nc(-c2ccccc2)c2ccccc2n1", "test system": "rhesus monkey male, plasma", "setting": "intravenous, TSPO preblock", "measurement": "time to 50% parent radioligand in plasma", "result": "9.4 min"}
{"Compound": "CCCC(CCC)NC(=O)c1ccc(O)c(O)c1", "assay": "LC-MS", "test system": "Sprague-Dawley rat, both sexes, rat liver microsomes", "setting": "10 µM of parent drug, 10 min, pH 7.4, added: NADPH", "how to read": "reference: parent drug at time zero", "measurement": "metabolite peak area", "result": "15.2%"}
{"Compound": "CC/C=C\\C/C=C\\C/C=C\\C/C=C\\C/C=C\\CCCCOC(CC)C(=O)O (stereo not drawn)", "assay": "radioactivity, 14C-labelled", "test system": "Wistar rat, male, urine and feces", "setting": "oral, 100 mg/kg, 48 h", "how to read": "reference: dose", "measurement": "cumulative excretion of radioactivity", "result": "> 95%"}
{"Compound": "Cc1ccc(-c2ccc(-c3cc4sccc4o3)cn2)nc1", "assay": "TCSPC", "test system": "MeCN", "measurement": "fluorescence lifetime", "result": "1.3 ns"}
{"Compound": "COC(=O)c1ccc2c(c1)NC(=O)/C2=C(\\Nc1ccc2c(c1)CCN2C(=O)CN1CCOCC1)c1ccccc1", "test system": "cynomolgus monkey, plasma", "setting": "oral, 5 mg/kg", "measurement": "AUC(0-t)", "result": "2580 ng·h/mL"}
{"Compound": "CC(C)c1cnc(-c2cc(Cl)ccc2F)cc1Nc1ccncc1C(=O)NC(CO)CO", "assay": "refers to: Fatigue", "test system": "solid tumour patients", "setting": "oral, dose not given, phase I monotherapy", "measurement": "treatment-related adverse events", "result": "9.5%"}
{"Compound": "[11CH3]c1ccc2nc(C3CCC3)n(-c3ccc4[nH]ncc4c3)c2n1", "test system": "human female, spleen", "measurement": "absorbed radiation dose", "result": "2.6 µSv/MBq"}
{"Compound": "CCn1cc(/C=C/c2sc3ccccc3[n+]2CC)c2ccccc21", "test system": "methanol", "measurement": "Stokes shift", "result": "65 nm"}
{"Compound": "CC(C)(C)NCC(SS(=O)(=O)O)c1ccccc1 (stereo not drawn)", "test system": "Swiss Webster mouse, female, plasma", "setting": "intravenous, 15 mg/kg, AUC to infinity", "measurement": "initial volume of distribution", "result": "0.403 L/kg"}
{"Compound": "O=C([O-])CN1CCN(CC(=O)[O-])CCN(CC(=O)NCC2CCC(C(=O)NC(Cc3ccc4ccccc4c3)C(=O)NCCCCC(NC(=O)NC(CCC(=O)O)C(=O)O)C(=O)O)CC2)CCN(CC(=O)[O-])CC1.[44Sc+3] (stereo not drawn)", "assay": "PET/CT dosimetry, OLINDA/EXM", "test system": "human, spleen", "measurement": "residence time", "result": "0.053 h"}
{"Compound": "NC[C@@H](C(=O)Nc1ccc(-c2cn[nH]c2)cc1)c1ccccc1", "assay": "OECD 405 eye irritation", "test system": "New Zealand White rabbit, eye", "setting": "topical, 0.1%, 80 h (day 4), scale 0 to 2", "how to read": "direction not given", "measurement": "iris score", "result": 0}
{"Compound": "COC(=O)c1ccc(CCc2cc3cc4nc(c(OC)c5[nH]c(cc6nc(cc2[nH]3)CC6(C)C)cc5CCCNC(=O)OC(C)(C)C)C(=O)C4(C)C)cc1", "test system": "DMF", "setting": "room temperature", "measurement": "Qy absorption maximum", "result": "679 nm"}
{"Compound": "C[C@H]1CO[C@@H]2Cn3cc(C(=O)NCc4ccc(F)cc4F)c(=O)c(O[C@@H]4O[C@H](C(=O)O)[C@@H](O)[C@H](O)[C@H]4O)c3C(=O)N12", "test system": "humans UGT1A9 wild type", "setting": "intramuscular, dose not given, 1 weeks post-injection", "measurement": "participants with detectable plasma drug", "result": "100%"}
{"Compound": "CCCCCC(O)C=CC1OC2OC(C1CC=CCCCC(=O)O)C2(F)F (stereo not drawn)", "test system": "50 mM phosphate buffer", "setting": "pH 7.40, 23 °C", "measurement": "hydrolysis rate constant", "result": "2.5e-08 s⁻¹"}
{"Compound": "Cn1c(=O)oc2ccc(-c3ccc(CC(C#N)NC(=O)C4CNCCCO4)c(F)c3)cc21 (stereo not drawn)", "test system": "human volunteers, plasma", "setting": "15 mg single dose, fasted, geometric mean", "measurement": "AUC(0-t)", "result": "796 ng·h/mL"}
{"Compound": "CCOC(=O)CCC(=O)Oc1ccc(/C=C/C(=O)/C=C(O)/C=C/c2ccc(OC(=O)CCC(=O)OCC)c(OC)c2)cc1OC", "test system": "plasma", "setting": "1.5 µM", "how to read": "reference: human over dog", "measurement": "hydrolysis rate constant ratio", "result": 1.6}
{"Compound": "N=C(N)NCCC[C@@H]1NC(=O)[C@H](Cc2c[nH]c3ccccc23)NC(=O)[C@@H](CC2CCCCC2)NC(=O)[C@@H]2CCCN2C(=O)[C@@H](NC(=O)CCc2ccccc2)CCCNC1=O", "assay": "two-compartment model", "test system": "C57BL/6J mouse, plasma brain", "setting": "intravenous, 1 mg/kg single dose", "measurement": "K21", "result": "6.4 h⁻¹"}
{"Compound": "CC(=O)N[C@H](CC(=O)O)C(=O)N[C@H](Cc1c[nH]c2ccccc12)C(=O)N[C@H](Cc1ccccc1)C(=O)N[C@H](CCCCN)C(=O)N[C@H](C)C(=O)N[C@H](Cc1ccccc1)C(=O)N[C@H](Cc1ccc(O)cc1)C(=O)N[C@H](CC(=O)O)C(=O)N[C@H](CCCCN)C(=O)N[C@@H](C(=O)N[C@H](C)C(=O)N[C@H](CCC(=O)O)C(=O)N[C@H](CCCCN)C(=O)N[C@H](Cc1ccccc1)C(=O)N[C@H](CCCCN)C(=O)N[C@H](CCC(=O)O)C(=O)N[C@H](C)C(=O)N[C@H](Cc1ccccc1)C(N)=O)C(C)C", "test system": "human, statin-treated high-risk CHD, plasma", "setting": "oral, dose not given, day 13, 0 h, daily dosing, predose", "measurement": "trough plasma concentration", "result": "< 1 ng/mL"}
{"Compound": "OC1(C(F)(F)F)CCN(c2nc(Nc3ccnc(C(F)(F)F)c3)nc(-c3cccc(C(F)(F)F)n3)n2)C1 (stereo not drawn)", "test system": "Sprague-Dawley rat, both sexes, urine and faeces", "setting": "oral, 10.1 mg/kg, 168 h, added: [14C]-labelled compound", "how to read": "reference: dose", "measurement": "cumulative excretion of radioactivity", "result": "98 ± 1.7%"}
{"Compound": "COc1cc(NC(C)=O)c2c(c1O)-c1c(OC)c(OC)cc3c1C(C2)N(C)CC3 (stereo not drawn)", "test system": "Wistar rat male, plasma", "setting": "oral, 200 mg/kg, two-compartment model", "measurement": "A coefficient", "result": "76.9 ± 53.9"}
{"Compound": "COC(=O)c1ccc(-c2cn(Cc3cc(Cl)ccc3O[11CH3])nn2)cc1", "assay": "PET, two-tissue compartment model", "test system": "rhesus monkey, brain WB", "setting": "dose not given", "measurement": "distribution volume", "result": "0.471 mL/cm³"}
{"Compound": "CCCC[C@H](NC(=O)[C@H](CC(C)C)N(C)C(=O)CNC(=O)[C@@H](NC(=O)[C@H](Cc1ccccc1)NC(=O)[C@H](CCCCN)NC(=O)[C@@H](N)CC(=O)O)C(C)C)C(N)=O", "test system": "anesthetized Gottingen minipig", "setting": "subcutaneous, 100 µg/kg", "how to read": "reference: baseline", "measurement": "mean arterial pressure", "result": "-16 ± 10.2%"}
{"Compound": "CC(C)C[C@@H](NC(=O)[C@H](NC(=O)[C@H]1CCCN1)[C@H](C)O)C(=O)N[C@H](Cc1c[nH]cn1)C(=O)N[C@@H](C(=O)N[C@H](Cc1c[nH]cn1)C(=O)N[C@H](CC(N)=O)C(=O)N[C@H](CCCNC(=N)N)C(=O)N[C@H](CCCNC(=N)N)C(=O)N[C@H](CCCNC(=N)N)C(=O)N[C@H](CCCNC(=N)N)C(=O)N[C@H](CCCNC(=N)N)C(N)=O)[C@H](C)O", "test system": "Beagle dog, CSF", "setting": "oral, 20 mg/kg", "measurement": "Cmax", "result": "13 ± 15 ng/mL"}
{"Compound": "N=C(N)NCCC[C@H](NC(=O)[C@H](CCCNC(=N)N)NC(=O)[C@H](CCCNC(=N)N)NC(=O)[C@H](CCCNC(=N)N)NC(=O)[C@H](CCCNC(=N)N)NC(=O)[C@H](CCCNC(=N)N)NC(=O)[C@H](CCCNC(=N)N)NC(=O)[C@H](CCCNC(=N)N)NC(=O)[C@H](CCCNC(=N)N)NC(=O)[C@H](CCCNC(=N)N)NC(=O)[C@H](CCCNC(=N)N)NC(=O)[C@H](CCCNC(=N)N)NC(=O)[C@H](CCCNC(=N)N)NC(=O)[C@H](CCCNC(=N)N)NC(=O)[C@H](CCCNC(=N)N)NC(=O)[C@H](CCCNC(=N)N)NC(=O)[C@H](CCCNC(=N)N)NC(=O)[C@H](CCCNC(=N)N)NC(=O)[C@H](CCCNC(=N)N)NC(=O)[C@H](CCCNC(=N)N)NC(=O)c1ccc2c(c1)C(=O)OC21c2ccc(O)cc2Oc2cc(O)ccc21)C(=O)O", "test system": "bovine cartilage explants", "setting": "24 h, added: 10 x PBS", "measurement": "retained fraction", "result": "~83%"}
{"Compound": "Cc1ccc(OCC(=O)O)cc1", "test system": "beagle dog, male, plasma", "setting": "oral gavage, 30 mg/kg of parent drug", "measurement": "t1/2", "result": "4.42 h"}
{"Compound": "C#CCOc1ccc(/C=C2\\SC(=O)N(CC(=O)NCc3ccccc3)C2=O)cc1", "assay": "inverse Kirkwood-Buff integrals", "test system": "binary solvent mixture", "setting": "concentration not given, 298.15 K, mole fraction x1 0.75", "measurement": "correlation volume", "result": "5170 cm³/mol"}
{"Compound": "CCCCCCCCCCCCCCCC(=O)N[C@@H](CCCCN)C(=O)N[C@@H](CCCCN)C(=O)N[C@@H](CO)C(=O)N[C@@H](CCCNC(=N)N)C(=O)N[C@@H](C)C(=O)N[C@@H](CC(C)C)C(=O)N[C@@H](Cc1ccccc1)C(N)=O", "test system": "cynomolgus monkey, male", "setting": "10 mg/kg, day 5", "measurement": "activated partial thromboplastin time", "result": "29.6 ± 2.9 s"}
{"Compound": "CCCCCCCC(=O)OC[C@H](NC(=O)[C@H](CO)NC(=O)CN)C(=O)N[C@@H](Cc1ccccc1)C(=O)N[C@@H](CC(C)C)C(=O)N[C@@H](CO)C(=O)N1CCC[C@H]1C(=O)N[C@@H](CCC(=O)O)C(=O)N[C@@H](Cc1cnc[nH]1)C(=O)N[C@@H](CCC(N)=O)C(=O)N[C@@H](CCCNC(=N)N)C(=O)N[C@H](C(=O)N[C@@H](CCC(N)=O)C(=O)N[C@@H](CCC(N)=O)C(=O)N[C@@H](CCCNC(=N)N)C(=O)N[C@@H](CCCCN)C(=O)N[C@@H](CCC(=O)O)C(=O)N[C@@H](CO)C(=O)N[C@@H](CCCCN)C(=O)N[C@@H](CCCCN)C(=O)N1CCC[C@H]1C(=O)N1CCC[C@H]1C(=O)N[C@@H](C)C(=O)N[C@@H](CCCCN)C(=O)N[C@@H](CC(C)C)C(=O)N[C@@H](CCC(N)=O)C(=O)N1CCC[C@H]1C(=O)N[C@@H](CCCNC(=N)N)C(=O)O)C(C)C", "test system": "chronic HFrEF patients non-paced", "setting": "intravenous infusion, 0.1 µg/kg/min, end of 120 min infusion", "measurement": "heart rate", "result": "69.3 ± 12.9 bpm"}
{"Compound": "COc1cc(OC)cc(C2=C3C(C)=C(I)C(/C=C/c4cccs4)=[N+]3[B-](F)(F)n3c(/C=C/c4cccs4)c(I)c(C)c32)c1", "test system": "THF", "measurement": "Stokes shift", "result": "219 cm⁻¹"}
